Published values of several laboratories.
Lines come from different studies, so protocols differ. Numbers after ± are the reported error.

SMILES	assay	test system	conditions	tissue uptake [%ID/g]
C=Cc1cc(O)cc2nc(-c3ccc(O)c([76Br])c3)oc12	–	female C57BL/6 mouse, kidney	1 h, high dose	1.58 ± 0.78
CC(C)C[C@@H](NC(=O)[C@@H](CCCNC(=N)N)NC(=O)[C@@H](Cc1c[nH]cn1)NC(=O)[C@@H](Cc1c[nH]c2ccccc12)NC(=O)[C@@H](Cc1c[nH]cn1)NC(=O)[C@@H](Cc1ccccc1)NC(=O)[C@H](NC(=O)[C@@H](Cc1ccc(O)cc1)NC(=O)CNC(=O)CNC(=O)CCOCCOCCOCCNC(=O)CN1CCN(CC(=O)O)CCN(CC(=O)O)CC1)[C@H](C)O)C(=O)N[C@H](CC(N)=O)C(=O)N1CCC[C@@H]1C(=O)O [gallium-68 labelled]	γ-counting	male C57BL/6 mice, kidney	intravenous, 1.85 MBq, 60 min	42.3 ± 3.52
CCCC[C@H](NC(=O)CN1CCC(NC(=O)CN2CCC(NC(=O)CN3CCN(CC(=O)O)CCN(CC(=O)O)CCN(CC(=O)O)CC3)CC2)CC1)C(=O)N[C@H]1CC(=O)NCCCC[C@@H](C(N)=O)NC(=O)[C@H](Cc2c[nH]c3ccccc23)NC(=O)[C@H](CCCNC(=N)N)NC(=O)[C@@H](Cc2ccccc2)NC(=O)[C@H](Cc2c[nH]cn2)NC1=O [gallium-68 labelled]	–	C57BL/6J mice male B16-F10 tumour, muscle	1 h post injection, unblocked	0.1
COc1cc2ccnc(Cc3ccc(O[11CH3])c(OC)c3)c2cc1OC	–	Sprague-Dawley rats, fat	intravenous, 0.08333 h	0.124 ± 0.02
N=C(N)NCc1ccc(C(=O)NCCCC[C@H](NC(=O)N[C@@H](CCC(=O)O)C(=O)O)C(=O)O)cc1[131I]	–	SCID mouse, PC-3 xenografts, spleen	14 h	0.5 ± 0.2
CN[C@](C)(C[18F])C(=O)O	–	SCID mouse SK-OV-3 xenograft, tumour	30 min post injection	14 ± 3.1
O=C(O)CC[C@H](NC(=O)O[C@@H](CCCCNC(=O)c1ccc([18F])cc1)C(=O)O)C(=O)O	–	mouse, PC-3 PIP/flu xenografts, bladder	90 min	2.11 ± 1.21
N=C(N)NCc1ccc(C(=O)NCCCC[C@H](NC(=O)CCCCCCC(=O)NCCCC[C@H](NC(=O)N[C@@H](CCC(=O)O)C(=O)O)C(=O)O)C(=O)O)cc1[131I]	–	SCID mouse, PC-3 xenografts, liver	2 h	3.48 ± 2.35
O=C(c1ccc(F)cc1)C1CCN(C2Cc3c(cccc3OCC[18F])CC2O)CC1 (single isomer, unassigned; (-))	–	Sprague-Dawley rat, male, cortex	5 min post-injection	0.777
CCNc1cc2[o+]c3cc(NCC)c(C)cc3c(-c3ccccc3C(=O)OCCOCC[18F])c2cc1C	–	rat, kidney	120 min	8.21 ± 1.22
C[S]1CC[S]2CC[P](CO)(CO)[99Tc+]12.[C-]#[O+].[C-]#[O+].[C-]#[O+]	–	CF-1 mice, female, blood	intravenous, 4 h	0.17
N=C(N)NCc1ccc(C(=O)NCCCC[C@H](NC(=O)N[C@@H](CCC(=O)O)C(=O)O)C(=O)O)cc1[211At]	–	SCID mouse, PC-3 xenografts, heart	21 h	0.4 ± 0.11
COc1cc2ncnc(Oc3cccc(N[11C](=O)Nc4cc(C(C)(C)C(F)(F)F)on4)c3)c2cc1OC	–	Balb/c nude mouse, female, A375 melanoma xenograft, liver	6.6 MBq, 30 min	19.1 ± 0.71

Some of these lines once more:
SMILES	assay	test system	conditions	tissue uptake [%ID/g]
CC(C)C[C@@H](NC(=O)[C@@H](CCCNC(=N)N)NC(=O)[C@@H](Cc1c[nH]cn1)NC(=O)[C@@H](Cc1c[nH]c2ccccc12)NC(=O)[C@@H](Cc1c[nH]cn1)NC(=O)[C@@H](Cc1ccccc1)NC(=O)[C@H](NC(=O)[C@@H](Cc1ccc(O)cc1)NC(=O)CNC(=O)CNC(=O)CCOCCOCCOCCNC(=O)CN1CCN(CC(=O)O)CCN(CC(=O)O)CC1)[C@H](C)O)C(=O)N[C@H](CC(N)=O)C(=O)N1CCC[C@@H]1C(=O)O [gallium-68 labelled]	γ-counting	male C57BL/6 mice, kidney	intravenous, 1.85 MBq, 60 min	42.3 ± 3.52
CCCC[C@H](NC(=O)CN1CCC(NC(=O)CN2CCC(NC(=O)CN3CCN(CC(=O)O)CCN(CC(=O)O)CCN(CC(=O)O)CC3)CC2)CC1)C(=O)N[C@H]1CC(=O)NCCCC[C@@H](C(N)=O)NC(=O)[C@H](Cc2c[nH]c3ccccc23)NC(=O)[C@H](CCCNC(=N)N)NC(=O)[C@@H](Cc2ccccc2)NC(=O)[C@H](Cc2c[nH]cn2)NC1=O [gallium-68 labelled]	–	C57BL/6J mice male B16-F10 tumour, muscle	1 h post injection, unblocked	0.1
